# Published values from different studies.
# Parts stem from different laboratories: compare values within a part only. Changes are numbered by the printed parent chain.

# Block 1
# Target: Histone acetyltransferase KAT6A, winged helix 1, GST fusion (KAT6A, Homo sapiens, UniProt Q92794, residues 1-85)
# Technique: protein binding microarray
# Molecule type: double-stranded DNA, one strand shown
# Medium: in vitro
# Tested at: not given
# Notes: 8-mer, flanks averaged, mean of 2 arrays, mostly near background
# Baseline: not given
# Direction: higher = stronger binding
# Residues (chain): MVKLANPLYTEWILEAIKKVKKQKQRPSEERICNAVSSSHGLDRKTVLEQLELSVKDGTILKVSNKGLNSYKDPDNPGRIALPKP
Oligonucleotide,E-score
CCATCTAG,-0.24
CGCTTGTC,0.0817
ACATAATC,-0.0236
AGGACCAC,-0.106
TAGGGATA,-0.128
AGCCTCGA,-0.168
ATGGACCA,-0.198
ACTAACAA,-0.0297
GGCCCTAC,0.0411
AATGTTTC,0.0407
CTAGGTCC,0.0837
AATTGTGC,-0.127
AGCTCGTG,-0.118
AGCGGCAT,0.384
CTGCCGCC,0.401
ACTGCTCA,-0.216
AGAGGTAG,-0.266
CCTTCCGC,0.261
ACGTACAG,-0.196
GTACCGTA,0.265
ATTCACAA,-0.181
GATGCACC,-0.0199
CCTTAATA,-0.118
ATTCGAGG,-0.151
CCGCTTAA,0.212

# Block 2
# Target: CCNE2, cyclin fold, Cln2 fusion (human)
# Technique: yeast growth competition, sequencing
# Medium: yeast
# Notes: strong parent motif
# Baseline: not given
# Direction: higher = stronger binding
# Parent: CDC25A docking peptide (human); PPHRRRLLFACSP; partner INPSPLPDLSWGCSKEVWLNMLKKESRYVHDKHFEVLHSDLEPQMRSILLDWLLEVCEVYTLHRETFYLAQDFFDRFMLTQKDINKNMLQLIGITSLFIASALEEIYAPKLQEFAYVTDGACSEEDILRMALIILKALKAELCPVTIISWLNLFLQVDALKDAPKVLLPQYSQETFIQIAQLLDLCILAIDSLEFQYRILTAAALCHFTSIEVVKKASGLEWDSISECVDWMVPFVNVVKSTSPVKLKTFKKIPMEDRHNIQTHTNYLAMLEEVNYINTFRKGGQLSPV
Change,normalised enrichment score
F9A,1.26
P1C,1.05
R5C,0.998
R6H,0.653
R4E,0.484
L7C,1.29
P2E,1.51
L8E,3.41
P13H,1.93
R5F,1.24
R4F,1.2
A10M,2.32
R4V,4.75
P2V,1.06
A10W,1.32
A10S,2.41
L8M,1.72
C11F,0.884

# Block 3
# Target: ABI1, truncated, D143A, DHFR fusion (Arabidopsis thaliana)
# Technique: DHFR PCA, deep sequencing
# Medium: yeast
# Notes: methotrexate growth selection, single substitutions
# Added: (+)-ABA 0.032 µM
# Baseline: wild-type fitted maximum
# Direction: higher = stronger binding
# Parent: PYL1, truncated, DHFR fusion (Arabidopsis thaliana); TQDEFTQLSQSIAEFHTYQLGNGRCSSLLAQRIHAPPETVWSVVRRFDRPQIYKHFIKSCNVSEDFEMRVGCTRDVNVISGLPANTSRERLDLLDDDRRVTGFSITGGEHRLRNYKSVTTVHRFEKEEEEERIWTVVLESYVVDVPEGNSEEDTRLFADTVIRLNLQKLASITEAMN
Change,relative binding score [%]
F47A,-1.94
N61H,51.3
R45F,-5.41
N61F,20.9
R98S,1.46
N177I,17.1
D92F,-0.668
T135W,-5.97
L29P,7.62
R90L,-3.01
R113H,12.2
F47H,-4.1
Y141H,6.22
E174P,2.21
V143F,-3.92

# Block 4
# Target: RNA binding protein fox-1 homolog 2, RRM domain, GST-SBP tag (RBFOX2, Homo sapiens, UniProt O43251-10, residues 100-194)
# Technique: RNA Bind-n-Seq
# Molecule type: RNA
# Medium: in vitro
# Tested at: 365 nM
# Notes: natural RNA segment, single round, ends assumed
# Baseline: no-protein control
# Direction: higher = stronger binding
# All sequences stand within: GGGAGUUCUACAGUCCGACGAUC … UGGAAUUCUCGGGUGCCAA
# Target sequence (chain): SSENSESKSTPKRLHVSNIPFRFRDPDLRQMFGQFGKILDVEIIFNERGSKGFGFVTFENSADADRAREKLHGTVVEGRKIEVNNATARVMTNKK
Oligonucleotide,RBNS enrichment (R)
AUUUCCUAACCAUGAGAAGCAGACUCUAAUAUUCAUAUUUAAACAAAGCAAUUUUUUUUAUUACUAAACAAGGUUUUUAUGAAUAAUAGCAUUGAUAUAUAUAUAUUAUA,0.541
CCUGUCCUCCAGUAUUGCACCUGUAGCCGGAGCUAGGGCCACCCCAGUGCAGGGGCAAAGCAAACCUGAUGUCAGUCGUUUUGUCUUUUCUACCCCAACCUCACCCUCUC,0.482
GAAAGCCCGCAUCACAGUGUUCAGUGACUGCUCUGCUCCAUUCUUUCUCCUCUCCAGUUUCUCUCUUGAAAGUCAAACAGUUUUGUAGUUGAAGCAGUCCGUGUGCAAAG,0.354
ACAGAGUGAUUGUAGUUUAAUACAGGAACACACAGGGCUGUGUAGCAUGAUACCAGGCCCAGGAGAUCAGUAAUUACAAAUUAAGGGUUAAAUCAGAGAUUAUUCAACAG,14
UUUAUGGAAAAACAACGGAAGUCCCAUUAUCCUCAACCUUGCUCAAGGCGGCAACCAGGAGGAAGUGGGGUAAAAGGGGCAGCUAUGGGCAUGAAACCAACCGAGUUGAU,2.27
AGAGAGAUUGAAACAGAAUAAACGGGCUGUUCUUGAAGAAGCAAAACCAGAAUAUGCAUUACUUUGGUUUAAUACUUAGUGCUAACAUUGAAACUGUUGGUGGUGAUGGA,0.504
CUAAUCAUUCAUCUGUUCAUGUCUCCCUCUUGUGCCAGUCAGCCUAGGUUAUACAGAUGCCAUGCUCCACACCACGAGCAGUGUACAAAUCUGGCUGCCCGUUUACUUUC,0.19
UGGACAGAUGGAUUCUAGUGUGACUUGUGACUGUGAGGUUUCCUAUAACAUAUUUAUAAAUGUUACUCAGGUUAAAAGUAUUUAAGAAUACAGUUAACUAAUUGUAAAUA,0.544

# Repeated from above (block 3):
Change,relative binding score [%]
L29P,7.62
R90L,-3.01
R113H,12.2
F47H,-4.1
